Assay results from different studies.
Each numbered part is a random draw from the data of one study; scales do not carry over between parts.
UniProt Q9BQI3, sequence (whole entry, looked up): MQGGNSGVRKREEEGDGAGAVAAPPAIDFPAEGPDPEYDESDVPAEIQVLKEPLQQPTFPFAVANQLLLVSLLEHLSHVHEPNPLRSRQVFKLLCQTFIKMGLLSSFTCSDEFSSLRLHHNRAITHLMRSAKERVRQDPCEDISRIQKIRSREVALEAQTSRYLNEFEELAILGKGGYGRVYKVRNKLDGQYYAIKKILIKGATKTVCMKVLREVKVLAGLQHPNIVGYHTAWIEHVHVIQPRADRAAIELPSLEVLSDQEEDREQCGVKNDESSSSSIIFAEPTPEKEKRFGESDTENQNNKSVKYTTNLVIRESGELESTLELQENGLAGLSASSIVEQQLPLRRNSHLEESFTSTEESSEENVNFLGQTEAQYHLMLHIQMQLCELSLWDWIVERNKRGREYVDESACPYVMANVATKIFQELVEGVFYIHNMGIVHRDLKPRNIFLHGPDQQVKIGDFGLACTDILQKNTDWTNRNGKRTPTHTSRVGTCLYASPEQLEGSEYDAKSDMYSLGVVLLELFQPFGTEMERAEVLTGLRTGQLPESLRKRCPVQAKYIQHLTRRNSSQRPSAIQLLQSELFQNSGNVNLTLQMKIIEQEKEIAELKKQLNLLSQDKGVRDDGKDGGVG
UniProt Q9P0L2, sequence (whole entry, looked up): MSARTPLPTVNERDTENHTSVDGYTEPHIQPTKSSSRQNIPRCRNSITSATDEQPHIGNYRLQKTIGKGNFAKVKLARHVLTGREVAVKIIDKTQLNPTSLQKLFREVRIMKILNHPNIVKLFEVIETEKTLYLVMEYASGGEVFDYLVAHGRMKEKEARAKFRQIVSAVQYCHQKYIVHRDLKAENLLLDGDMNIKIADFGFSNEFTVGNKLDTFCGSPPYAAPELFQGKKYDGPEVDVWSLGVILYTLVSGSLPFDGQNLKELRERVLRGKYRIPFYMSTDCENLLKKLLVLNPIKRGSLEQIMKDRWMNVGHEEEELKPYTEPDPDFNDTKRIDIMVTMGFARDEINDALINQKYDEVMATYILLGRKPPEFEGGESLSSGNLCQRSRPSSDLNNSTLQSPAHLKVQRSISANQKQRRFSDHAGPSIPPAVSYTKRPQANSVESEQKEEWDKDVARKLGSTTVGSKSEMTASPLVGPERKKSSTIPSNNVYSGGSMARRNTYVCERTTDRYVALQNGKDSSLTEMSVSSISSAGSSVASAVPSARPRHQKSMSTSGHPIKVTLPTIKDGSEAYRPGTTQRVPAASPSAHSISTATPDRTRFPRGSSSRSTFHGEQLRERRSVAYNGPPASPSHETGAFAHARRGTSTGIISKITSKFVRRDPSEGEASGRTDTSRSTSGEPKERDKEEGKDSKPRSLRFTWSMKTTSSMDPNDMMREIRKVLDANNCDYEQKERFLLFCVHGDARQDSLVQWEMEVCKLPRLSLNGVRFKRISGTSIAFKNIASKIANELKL
UniProt P07948, sequence (whole entry, looked up): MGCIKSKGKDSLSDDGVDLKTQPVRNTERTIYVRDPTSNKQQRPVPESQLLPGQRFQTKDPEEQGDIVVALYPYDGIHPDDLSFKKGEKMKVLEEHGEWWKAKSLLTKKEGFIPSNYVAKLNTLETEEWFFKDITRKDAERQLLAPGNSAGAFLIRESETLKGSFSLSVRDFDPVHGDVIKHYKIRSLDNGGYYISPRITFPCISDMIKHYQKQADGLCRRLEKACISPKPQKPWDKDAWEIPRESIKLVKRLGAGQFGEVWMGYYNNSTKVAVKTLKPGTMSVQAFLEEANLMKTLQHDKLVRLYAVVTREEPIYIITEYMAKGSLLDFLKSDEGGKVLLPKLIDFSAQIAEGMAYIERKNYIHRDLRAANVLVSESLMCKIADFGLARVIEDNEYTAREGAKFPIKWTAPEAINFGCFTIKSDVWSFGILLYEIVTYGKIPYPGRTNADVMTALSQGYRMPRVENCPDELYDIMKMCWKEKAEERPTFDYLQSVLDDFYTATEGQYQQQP
UniProt P28482, sequence (whole entry, looked up): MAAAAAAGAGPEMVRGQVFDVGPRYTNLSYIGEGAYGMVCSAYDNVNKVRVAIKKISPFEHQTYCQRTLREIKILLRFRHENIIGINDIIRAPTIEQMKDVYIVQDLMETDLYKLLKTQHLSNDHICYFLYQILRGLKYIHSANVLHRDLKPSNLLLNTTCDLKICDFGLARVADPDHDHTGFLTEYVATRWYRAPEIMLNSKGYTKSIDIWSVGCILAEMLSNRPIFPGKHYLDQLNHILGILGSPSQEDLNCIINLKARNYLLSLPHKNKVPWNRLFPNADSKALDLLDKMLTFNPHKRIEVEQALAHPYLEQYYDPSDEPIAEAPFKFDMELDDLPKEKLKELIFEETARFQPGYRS
UniProt O60285, sequence (whole entry, looked up): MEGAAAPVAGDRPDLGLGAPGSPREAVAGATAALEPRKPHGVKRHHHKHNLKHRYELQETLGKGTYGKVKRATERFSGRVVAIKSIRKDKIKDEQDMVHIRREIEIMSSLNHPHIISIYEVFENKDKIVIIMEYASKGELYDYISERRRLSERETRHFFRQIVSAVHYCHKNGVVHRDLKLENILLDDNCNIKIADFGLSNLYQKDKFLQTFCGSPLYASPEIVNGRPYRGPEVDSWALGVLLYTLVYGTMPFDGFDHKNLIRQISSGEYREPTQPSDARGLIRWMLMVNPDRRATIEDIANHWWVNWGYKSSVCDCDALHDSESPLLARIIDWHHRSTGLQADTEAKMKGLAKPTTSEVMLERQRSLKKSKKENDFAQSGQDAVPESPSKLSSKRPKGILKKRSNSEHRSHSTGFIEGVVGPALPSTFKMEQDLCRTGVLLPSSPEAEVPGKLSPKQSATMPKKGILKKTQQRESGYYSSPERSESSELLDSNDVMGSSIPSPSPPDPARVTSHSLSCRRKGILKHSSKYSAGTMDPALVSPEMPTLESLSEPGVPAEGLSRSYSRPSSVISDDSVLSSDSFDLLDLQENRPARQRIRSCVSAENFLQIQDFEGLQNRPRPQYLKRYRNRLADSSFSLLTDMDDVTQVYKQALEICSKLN
UniProt Q14164, sequence (whole entry, looked up): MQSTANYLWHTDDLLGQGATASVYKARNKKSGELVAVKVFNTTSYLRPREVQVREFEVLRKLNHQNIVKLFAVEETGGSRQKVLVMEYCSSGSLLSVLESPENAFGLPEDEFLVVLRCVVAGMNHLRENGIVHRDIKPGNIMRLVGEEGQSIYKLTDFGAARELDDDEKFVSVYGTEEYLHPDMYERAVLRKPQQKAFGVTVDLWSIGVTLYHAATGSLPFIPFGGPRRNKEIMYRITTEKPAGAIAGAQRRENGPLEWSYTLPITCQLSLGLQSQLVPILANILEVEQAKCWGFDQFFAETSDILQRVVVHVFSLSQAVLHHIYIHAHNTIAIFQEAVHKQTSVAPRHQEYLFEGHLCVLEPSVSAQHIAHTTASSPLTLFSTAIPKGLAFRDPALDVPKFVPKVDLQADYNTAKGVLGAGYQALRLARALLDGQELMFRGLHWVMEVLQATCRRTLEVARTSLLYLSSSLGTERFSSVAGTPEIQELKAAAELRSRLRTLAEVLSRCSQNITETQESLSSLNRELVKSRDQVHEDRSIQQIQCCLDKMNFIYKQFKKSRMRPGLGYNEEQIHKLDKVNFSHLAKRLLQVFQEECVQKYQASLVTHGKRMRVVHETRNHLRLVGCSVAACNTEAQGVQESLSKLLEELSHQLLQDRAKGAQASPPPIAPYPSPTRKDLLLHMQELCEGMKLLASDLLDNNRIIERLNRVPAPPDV
UniProt Q9UEE5, sequence (whole entry, looked up): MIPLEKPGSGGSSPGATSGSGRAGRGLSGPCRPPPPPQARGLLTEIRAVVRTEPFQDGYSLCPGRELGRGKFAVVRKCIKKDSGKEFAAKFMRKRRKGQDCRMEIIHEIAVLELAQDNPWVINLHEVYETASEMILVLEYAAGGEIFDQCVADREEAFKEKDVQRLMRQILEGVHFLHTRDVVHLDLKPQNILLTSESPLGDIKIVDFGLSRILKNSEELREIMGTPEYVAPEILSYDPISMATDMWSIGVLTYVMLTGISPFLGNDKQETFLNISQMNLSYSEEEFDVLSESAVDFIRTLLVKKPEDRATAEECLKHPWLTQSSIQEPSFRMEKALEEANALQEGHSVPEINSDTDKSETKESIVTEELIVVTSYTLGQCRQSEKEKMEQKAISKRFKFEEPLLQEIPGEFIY
UniProt P37173, sequence (whole entry, looked up): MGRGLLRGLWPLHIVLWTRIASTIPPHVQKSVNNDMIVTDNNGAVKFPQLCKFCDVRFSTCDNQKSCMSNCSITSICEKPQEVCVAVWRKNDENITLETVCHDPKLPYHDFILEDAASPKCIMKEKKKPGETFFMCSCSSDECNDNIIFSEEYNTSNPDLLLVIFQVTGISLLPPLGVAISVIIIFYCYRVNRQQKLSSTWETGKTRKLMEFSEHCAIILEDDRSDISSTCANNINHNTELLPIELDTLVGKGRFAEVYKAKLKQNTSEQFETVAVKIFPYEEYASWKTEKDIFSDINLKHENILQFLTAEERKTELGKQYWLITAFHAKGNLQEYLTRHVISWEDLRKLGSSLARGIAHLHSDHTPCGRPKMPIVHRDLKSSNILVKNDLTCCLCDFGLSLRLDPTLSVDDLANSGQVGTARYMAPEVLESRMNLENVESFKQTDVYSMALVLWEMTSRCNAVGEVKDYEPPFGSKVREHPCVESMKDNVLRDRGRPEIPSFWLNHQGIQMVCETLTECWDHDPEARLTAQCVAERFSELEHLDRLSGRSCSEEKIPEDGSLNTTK
UniProt P11802, sequence (whole entry, looked up): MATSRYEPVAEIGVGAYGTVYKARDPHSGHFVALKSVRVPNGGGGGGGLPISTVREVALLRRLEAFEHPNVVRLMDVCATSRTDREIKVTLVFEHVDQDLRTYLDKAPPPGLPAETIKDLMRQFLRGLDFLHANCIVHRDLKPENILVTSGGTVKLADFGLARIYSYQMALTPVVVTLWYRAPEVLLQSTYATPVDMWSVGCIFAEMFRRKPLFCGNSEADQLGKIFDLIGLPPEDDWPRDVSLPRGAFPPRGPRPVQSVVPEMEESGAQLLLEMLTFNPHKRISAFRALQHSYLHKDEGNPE

Study 1
Organism: Sarcocystis neurona
Observed: parasite growth
Concentration: 10 µM
Time: 96 h
Notes: secondary screen
`CN(C)CCC(c1ccc(Cl)cc1)c1ccccn1` (stereo not drawn) has an inhibition of -12.6%.
The inhibition of `Cc1cc2c(s1)Nc1ccccc1N=C2N1CCN(C)CC1` is reported as -22.9%.
`CC(=O)CCCCn1c(=O)c2c(ncn2C)n(C)c1=O` gave an inhibition of -7.7%.
For `CN(CCOc1ccc(NS(C)(=O)=O)cc1)CCc1ccc(NS(C)(=O)=O)cc1`, the inhibition was -18.6%.
For `CC[N+](C)(C)c1cccc(O)c1`, the inhibition was -14.9%.
`CC(C)(C)NC(=O)[C@@H]1CN(Cc2cccnc2)CCN1C[C@@H](O)C[C@@H](Cc1ccccc1)C(=O)N[C@H]1c2ccccc2C[C@H]1O` gave an inhibition of -10.3%.
For `CN(C)CCCN1c2ccccc2CCc2ccccc21`, the inhibition was -17.7%.
With `CC/C(=C(\c1ccccc1)c1ccc(OCCN(C)C)cc1)c1ccccc1` the inhibition was -28%.

Study 2
Compound: NC(=O)c1cccc(-c2cc(Nc3ccc(OC(F)(F)F)cc3)ncn2)c1
Observed: enzyme activity
Mode: inhibitor
Concentration: 0.5 µM
Relative to: control
It gave 101% for remaining activity (Serine/threonine-protein kinase 10 (STK10, Homo sapiens, UniProt O94804)).
For G protein-coupled receptor kinase 3 (GRK3, Homo sapiens, UniProt P35626): remaining activity read 80.5%.
The remaining activity was 99.8% (Cyclin-dependent kinase 4, with cyclin D1 (CDK4, Homo sapiens, UniProt P11802)).
Mitogen-activated protein kinase kinase kinase 3 (MAP3K3, Homo sapiens, UniProt Q99759) — remaining activity: 104%.
The remaining activity was 99.1% (Death-associated protein kinase 2 (DAPK2, Homo sapiens, UniProt Q9UIK4)).
The remaining activity was 85.5% (STE20/SPS1-related proline-alanine-rich protein kinase (STK39, Homo sapiens, UniProt Q9UEW8)).
The remaining activity was 90.8% (Calcium/calmodulin-dependent protein kinase type II subunit delta (CAMK2D, Homo sapiens, UniProt Q13557)).
Serine/threonine-protein kinase OSR1 (OXSR1, Homo sapiens, UniProt O95747) — remaining activity: 97.9%.
Serine/threonine-protein kinase STK11 (STK11, Homo sapiens, UniProt Q15831) — remaining activity: 97.2%.
Death-associated protein kinase 1 (DAPK1, Homo sapiens, UniProt P53355) — remaining activity: 81.1%.
For Cyclin-dependent kinase 5, with p25 (CDK5, Homo sapiens, UniProt Q00535): remaining activity read 80.1%.
Tyrosine-protein kinase Lyn, isoform B (LYN, Homo sapiens, UniProt P07948) — remaining activity: 101%.
For cGMP-dependent protein kinase 1, isoform beta (PRKG1, Homo sapiens, UniProt Q13976): remaining activity read 92.9%.
The remaining activity was 98.6% (Inhibitor of nuclear factor kappa-B kinase subunit beta (IKBKB, Homo sapiens, UniProt O14920)).
Serine/threonine-protein kinase Chk2 (CHEK2, Homo sapiens, UniProt O96017) — remaining activity: 101%.
Inhibitor of nuclear factor kappa-B kinase subunit epsilon (IKBKE, Homo sapiens, UniProt Q14164) — remaining activity: 107%.
For Protein kinase C beta type, isoform beta-I (PRKCB, Homo sapiens, UniProt P05771): remaining activity read 97.4%.
The remaining activity was 103% (TGF-beta receptor type-1 (TGFBR1, Homo sapiens, UniProt P36897)).
The remaining activity was 94.9% (TGF-beta receptor type-2 (TGFBR2, Homo sapiens, UniProt P37173)).
For cAMP-dependent protein kinase catalytic subunit alpha (PRKACA, Homo sapiens, UniProt P17612): remaining activity read 94.2%.
It gave 77.4% for remaining activity (Protein kinase C alpha type (PRKCA, Homo sapiens, UniProt P17252)).
The remaining activity was 99.1% (Calcium/calmodulin-dependent protein kinase kinase 2 (CAMKK2, Homo sapiens, UniProt Q96RR4)).

Study 3
Structure (SMILES): C[C@H](NC(=O)c1cnc2n1[C@](C)(Cc1ccc(C#N)cc1)C(=O)N2c1cc(Cl)c(F)c(Cl)c1)C(=O)NC1(c2ccccn2)CC1
Observed: cell-free assay
Method: competition with immobilised ligand
Concentration: 1 µM
Mitogen-activated protein kinase kinase kinase 12 (MAP3K12, Homo sapiens, UniProt Q12852) — remaining binding: 100%.
Phosphatidylinositol 4,5-bisphosphate 3-kinase catalytic subunit alpha isoform (PIK3CA, Homo sapiens, UniProt P42336, I800L) — remaining binding: 100%.
Platelet-derived growth factor receptor alpha (PDGFRA, Homo sapiens, UniProt P16234) — remaining binding: 100%.
The remaining binding was 100% (Mast/stem cell growth factor receptor Kit, autoinhibited (KIT, Homo sapiens, UniProt P10721)).
The remaining binding was 93% (Eukaryotic translation initiation factor 2-alpha kinase 1 (EIF2AK1, Homo sapiens, UniProt Q9BQI3)).
It gave 59% for remaining binding (Serine/threonine-protein kinase tousled-like 2 (TLK2, Homo sapiens, UniProt Q86UE8)).
The remaining binding was 100% (Cyclin-dependent kinase 18 (CDK18, Homo sapiens, UniProt Q07002)).
For Cyclin-dependent kinase-like 2 (CDKL2, Homo sapiens, UniProt Q92772): remaining binding read 100%.
Phosphatidylinositol 4-phosphate 5-kinase type-1 gamma (PIP5K1C, Homo sapiens, UniProt O60331) — remaining binding: 80%.
Homeodomain-interacting protein kinase 4 (HIPK4, Homo sapiens, UniProt Q8NE63) — remaining binding: 100%.
For Serine/threonine-protein kinase 17A (STK17A, Homo sapiens, UniProt Q9UEE5): remaining binding read 100%.
Serine/threonine-protein kinase DCLK1 (DCLK1, Homo sapiens, UniProt O15075) — remaining binding: 89%.
The remaining binding was 100% (Cyclin-dependent kinase-like 3 (CDKL3, Homo sapiens, UniProt Q8IVW4)).
The remaining binding was 99% (NUAK family SNF1-like kinase 1 (NUAK1, Homo sapiens, UniProt O60285)).
It gave 100% for remaining binding (Mitogen-activated protein kinase 1 (MAPK1, Homo sapiens, UniProt P28482)).
Serine/threonine-protein kinase MARK1 (MARK1, Homo sapiens, UniProt Q9P0L2) — remaining binding: 100%.
For Transient receptor potential cation channel subfamily M member 6 (TRPM6, Homo sapiens, UniProt Q9BX84): remaining binding read 100%.
Serine/threonine-protein kinase BRSK2 (BRSK2, Homo sapiens, UniProt Q8IWQ3) — remaining binding: 100%.
The remaining binding was 100% (Casein kinase I isoform gamma-3 (CSNK1G3, Homo sapiens, UniProt Q9Y6M4)).
For Fibroblast growth factor receptor 3 (FGFR3, Homo sapiens, UniProt P22607): remaining binding read 100%.

Other studies, line by line
With `Cc1ccc(C(=O)Nc2ccc(S(=O)(=O)[O-])c3cc(S(=O)(=O)[O-])cc(S(=O)(=O)[O-])c23)cc1NC(=O)c1cccc(NC(=O)Nc2cccc(C(=O)Nc3cc(C(=O)Nc4ccc(S(=O)(=O)[O-])c5cc(S(=O)(=O)[O-])cc(S(=O)(=O)[O-])c45)ccc3C)c2)c1.[Na+].[Na+].[Na+].[Na+].[Na+].[Na+]` the remaining activity was 6.56% (DNA polymerase theta, ATPase domain (POLQ, Homo sapiens, UniProt O75417); ATPase activity, inhibitor, ADP-Glo luminescence; 77 µM, mean of duplicates).

Repeated from above (study 2):
The remaining activity was 85.5% (STE20/SPS1-related proline-alanine-rich protein kinase (STK39, Homo sapiens, UniProt Q9UEW8)).
It gave 101% for remaining activity (Serine/threonine-protein kinase 10 (STK10, Homo sapiens, UniProt O94804)).
The remaining activity was 99.1% (Death-associated protein kinase 2 (DAPK2, Homo sapiens, UniProt Q9UIK4)).
For cAMP-dependent protein kinase catalytic subunit alpha (PRKACA, Homo sapiens, UniProt P17612): remaining activity read 94.2%.
For G protein-coupled receptor kinase 3 (GRK3, Homo sapiens, UniProt P35626): remaining activity read 80.5%.
Serine/threonine-protein kinase STK11 (STK11, Homo sapiens, UniProt Q15831) — remaining activity: 97.2%.
The remaining activity was 99.8% (Cyclin-dependent kinase 4, with cyclin D1 (CDK4, Homo sapiens, UniProt P11802)).
The remaining activity was 103% (TGF-beta receptor type-1 (TGFBR1, Homo sapiens, UniProt P36897)).
